Published values of several laboratories.
Each numbered part is a random draw from the data of one study; scales do not carry over between parts. Values joined by “and” are separate records of one study, mostly repeats; a detail may differ.
Chain of UniProt P10721 (whole entry, unmodified, looked up): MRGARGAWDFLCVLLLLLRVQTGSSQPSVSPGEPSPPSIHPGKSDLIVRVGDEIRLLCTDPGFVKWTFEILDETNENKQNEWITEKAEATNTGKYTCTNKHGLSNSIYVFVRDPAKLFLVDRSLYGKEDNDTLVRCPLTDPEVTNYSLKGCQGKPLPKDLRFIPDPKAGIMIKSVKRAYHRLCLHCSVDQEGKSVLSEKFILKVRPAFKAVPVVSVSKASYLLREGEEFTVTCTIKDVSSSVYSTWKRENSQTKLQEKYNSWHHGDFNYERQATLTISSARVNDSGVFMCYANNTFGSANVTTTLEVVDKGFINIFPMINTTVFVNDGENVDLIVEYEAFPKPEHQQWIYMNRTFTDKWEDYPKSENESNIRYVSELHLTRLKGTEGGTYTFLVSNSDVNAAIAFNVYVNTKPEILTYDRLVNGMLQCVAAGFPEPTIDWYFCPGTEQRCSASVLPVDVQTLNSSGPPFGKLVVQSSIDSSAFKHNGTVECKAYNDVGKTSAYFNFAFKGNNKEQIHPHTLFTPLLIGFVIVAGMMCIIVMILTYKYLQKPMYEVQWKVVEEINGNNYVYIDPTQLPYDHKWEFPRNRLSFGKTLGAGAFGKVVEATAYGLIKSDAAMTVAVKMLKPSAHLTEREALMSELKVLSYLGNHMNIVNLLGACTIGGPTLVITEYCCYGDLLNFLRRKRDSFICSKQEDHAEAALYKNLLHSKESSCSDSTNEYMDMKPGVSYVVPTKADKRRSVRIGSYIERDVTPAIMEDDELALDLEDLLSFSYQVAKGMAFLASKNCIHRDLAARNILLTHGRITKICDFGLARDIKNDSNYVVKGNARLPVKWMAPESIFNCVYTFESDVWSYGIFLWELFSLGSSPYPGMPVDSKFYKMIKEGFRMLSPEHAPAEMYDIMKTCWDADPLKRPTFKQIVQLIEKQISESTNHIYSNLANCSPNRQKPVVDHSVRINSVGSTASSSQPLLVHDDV
Chain of UniProt Q13043 (whole entry, looked up): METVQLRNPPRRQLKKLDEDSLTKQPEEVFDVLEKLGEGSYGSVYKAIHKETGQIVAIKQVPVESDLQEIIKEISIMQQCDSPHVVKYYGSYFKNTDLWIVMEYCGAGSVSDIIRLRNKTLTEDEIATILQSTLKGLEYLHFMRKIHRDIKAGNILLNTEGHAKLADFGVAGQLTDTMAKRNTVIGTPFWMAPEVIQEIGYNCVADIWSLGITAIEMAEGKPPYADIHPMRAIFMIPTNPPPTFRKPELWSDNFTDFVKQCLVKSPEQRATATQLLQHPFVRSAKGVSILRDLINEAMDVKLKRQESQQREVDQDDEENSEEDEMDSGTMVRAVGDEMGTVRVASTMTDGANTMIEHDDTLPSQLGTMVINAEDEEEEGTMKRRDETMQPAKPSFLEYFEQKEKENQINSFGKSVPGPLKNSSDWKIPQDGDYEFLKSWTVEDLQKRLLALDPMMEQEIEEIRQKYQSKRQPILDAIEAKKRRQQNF
Chain of UniProt Q99558 (whole entry, looked up): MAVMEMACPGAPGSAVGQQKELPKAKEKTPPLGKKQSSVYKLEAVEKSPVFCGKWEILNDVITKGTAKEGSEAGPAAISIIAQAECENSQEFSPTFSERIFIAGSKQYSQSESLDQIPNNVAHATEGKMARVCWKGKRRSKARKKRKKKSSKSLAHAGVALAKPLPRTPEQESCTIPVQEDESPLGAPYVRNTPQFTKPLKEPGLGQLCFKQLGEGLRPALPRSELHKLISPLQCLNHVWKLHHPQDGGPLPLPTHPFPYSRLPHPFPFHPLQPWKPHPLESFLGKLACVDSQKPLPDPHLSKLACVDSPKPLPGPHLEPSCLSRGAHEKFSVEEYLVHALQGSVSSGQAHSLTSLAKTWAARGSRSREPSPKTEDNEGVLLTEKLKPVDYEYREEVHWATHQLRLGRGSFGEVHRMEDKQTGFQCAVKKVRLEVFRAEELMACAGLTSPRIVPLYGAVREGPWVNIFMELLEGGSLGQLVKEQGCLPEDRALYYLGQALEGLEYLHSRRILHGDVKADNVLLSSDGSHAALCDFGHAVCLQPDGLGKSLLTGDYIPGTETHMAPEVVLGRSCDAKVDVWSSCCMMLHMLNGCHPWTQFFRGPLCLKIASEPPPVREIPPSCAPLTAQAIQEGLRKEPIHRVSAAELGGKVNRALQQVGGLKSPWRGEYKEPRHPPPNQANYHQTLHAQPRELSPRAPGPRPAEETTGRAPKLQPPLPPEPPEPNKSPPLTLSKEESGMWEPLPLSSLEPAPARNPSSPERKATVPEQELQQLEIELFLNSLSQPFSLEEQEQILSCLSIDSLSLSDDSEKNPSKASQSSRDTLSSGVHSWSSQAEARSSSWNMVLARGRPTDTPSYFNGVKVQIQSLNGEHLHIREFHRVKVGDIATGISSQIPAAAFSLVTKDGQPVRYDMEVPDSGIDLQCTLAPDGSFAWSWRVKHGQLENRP

Sample 1
Target: DNA polymerase theta, ATPase domain (POLQ, Homo sapiens, UniProt O75417)
Chain of UniProt O75417 (whole entry, unmodified, looked up): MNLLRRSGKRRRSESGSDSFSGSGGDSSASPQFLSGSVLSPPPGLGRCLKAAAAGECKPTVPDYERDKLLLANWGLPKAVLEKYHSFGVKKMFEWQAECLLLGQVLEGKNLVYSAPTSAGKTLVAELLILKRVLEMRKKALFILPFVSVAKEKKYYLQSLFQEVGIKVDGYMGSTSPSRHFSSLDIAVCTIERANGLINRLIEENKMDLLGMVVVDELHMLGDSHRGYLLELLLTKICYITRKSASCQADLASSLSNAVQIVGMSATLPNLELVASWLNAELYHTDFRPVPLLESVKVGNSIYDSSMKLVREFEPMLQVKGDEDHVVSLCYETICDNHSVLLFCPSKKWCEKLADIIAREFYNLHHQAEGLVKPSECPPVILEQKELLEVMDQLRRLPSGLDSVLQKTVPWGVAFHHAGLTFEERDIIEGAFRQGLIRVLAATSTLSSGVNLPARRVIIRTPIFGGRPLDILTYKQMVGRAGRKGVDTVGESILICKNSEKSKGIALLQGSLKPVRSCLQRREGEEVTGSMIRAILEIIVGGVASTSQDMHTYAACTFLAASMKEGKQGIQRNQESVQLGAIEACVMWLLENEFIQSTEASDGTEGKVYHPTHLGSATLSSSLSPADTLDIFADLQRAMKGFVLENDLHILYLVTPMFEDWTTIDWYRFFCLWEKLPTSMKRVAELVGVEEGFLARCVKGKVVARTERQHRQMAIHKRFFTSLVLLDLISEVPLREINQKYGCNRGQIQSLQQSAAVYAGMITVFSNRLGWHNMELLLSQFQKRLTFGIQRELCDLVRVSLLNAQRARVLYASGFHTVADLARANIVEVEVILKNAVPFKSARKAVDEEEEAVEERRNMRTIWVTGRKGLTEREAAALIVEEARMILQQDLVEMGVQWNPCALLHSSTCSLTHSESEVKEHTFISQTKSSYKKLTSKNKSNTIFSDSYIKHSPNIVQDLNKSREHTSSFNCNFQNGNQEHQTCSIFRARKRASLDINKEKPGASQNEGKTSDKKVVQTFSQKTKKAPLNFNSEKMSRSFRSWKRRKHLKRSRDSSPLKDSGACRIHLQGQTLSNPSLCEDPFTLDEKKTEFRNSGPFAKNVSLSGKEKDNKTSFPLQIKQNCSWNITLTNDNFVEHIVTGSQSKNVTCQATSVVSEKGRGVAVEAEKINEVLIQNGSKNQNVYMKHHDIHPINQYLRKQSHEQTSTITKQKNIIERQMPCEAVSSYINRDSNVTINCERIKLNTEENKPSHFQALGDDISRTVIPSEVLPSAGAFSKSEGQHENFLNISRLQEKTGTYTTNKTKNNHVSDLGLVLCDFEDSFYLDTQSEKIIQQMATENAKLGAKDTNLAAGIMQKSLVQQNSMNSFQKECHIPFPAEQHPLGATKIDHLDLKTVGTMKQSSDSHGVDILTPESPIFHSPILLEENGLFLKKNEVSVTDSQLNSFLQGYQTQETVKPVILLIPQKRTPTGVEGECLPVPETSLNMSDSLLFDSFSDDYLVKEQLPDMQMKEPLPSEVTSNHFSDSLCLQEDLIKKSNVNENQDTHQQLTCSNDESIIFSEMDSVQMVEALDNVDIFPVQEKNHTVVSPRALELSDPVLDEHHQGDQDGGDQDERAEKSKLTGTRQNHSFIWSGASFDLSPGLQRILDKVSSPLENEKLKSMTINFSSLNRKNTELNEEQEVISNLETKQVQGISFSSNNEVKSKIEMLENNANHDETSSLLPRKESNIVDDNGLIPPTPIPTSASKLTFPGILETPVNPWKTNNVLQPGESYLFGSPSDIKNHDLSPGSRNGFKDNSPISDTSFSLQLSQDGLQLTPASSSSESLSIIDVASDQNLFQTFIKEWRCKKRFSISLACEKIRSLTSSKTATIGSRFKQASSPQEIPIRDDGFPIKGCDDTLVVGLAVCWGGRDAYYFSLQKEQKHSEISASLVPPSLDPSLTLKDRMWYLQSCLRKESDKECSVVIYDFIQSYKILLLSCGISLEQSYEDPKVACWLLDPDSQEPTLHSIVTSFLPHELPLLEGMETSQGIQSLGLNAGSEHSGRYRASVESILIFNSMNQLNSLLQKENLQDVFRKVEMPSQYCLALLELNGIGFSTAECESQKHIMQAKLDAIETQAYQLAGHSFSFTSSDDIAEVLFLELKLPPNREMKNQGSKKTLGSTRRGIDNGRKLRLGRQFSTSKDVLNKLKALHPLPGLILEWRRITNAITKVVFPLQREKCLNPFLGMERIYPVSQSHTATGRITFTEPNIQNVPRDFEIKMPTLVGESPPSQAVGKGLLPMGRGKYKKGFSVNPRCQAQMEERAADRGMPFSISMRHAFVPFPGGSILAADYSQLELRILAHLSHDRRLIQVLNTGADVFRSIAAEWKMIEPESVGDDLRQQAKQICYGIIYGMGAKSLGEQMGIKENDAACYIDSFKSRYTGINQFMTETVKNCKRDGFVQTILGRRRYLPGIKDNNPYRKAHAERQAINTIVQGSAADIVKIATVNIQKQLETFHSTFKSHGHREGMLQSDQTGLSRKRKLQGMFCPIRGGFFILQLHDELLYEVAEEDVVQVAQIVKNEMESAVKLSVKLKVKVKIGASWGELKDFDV
Observed: enzyme activity
Action: inhibitor
Concentration: 77 µM
Baseline: untreated
SMILES | remaining activity [%]
Nc1nc2ccc(Cl)cc2c2nc(-c3ccco3)nn12 | 102
O=C(NC1CCOCC1)c1ccc(-c2cc(-c3c[nH]nc3-c3ccccn3)ccn2)cc1 | 100
Cc1ccccc1C(=O)Nc1ccc(C(=O)N2CCCC(O)c3cc(Cl)ccc32)c(C)c1 (stereo not shown) | 102

Sample 2
Structure (SMILES): CC(=O)Nc1c(C(C)=O)c(=O)n(C)c2nc(-c3ccc(Cl)cc3Cl)c(-c3ccc(Cl)cc3)cc12
Observed: cell-free assay
Method: competition with immobilised ligand
Concentration: 1 µM
target | remaining binding [%]
Mitogen-activated protein kinase kinase kinase 14 (MAP3K14, Homo sapiens, UniProt Q99558) | 92
Serine/threonine-protein kinase Sgk3 (SGK3, Homo sapiens, UniProt Q96BR1) | 100
Tyrosine-protein kinase ABL1, phosphorylated (ABL1, Homo sapiens, UniProt P00519, M351T) | 100
1-phosphatidylinositol 3-phosphate 5-kinase (PIKFYVE, Homo sapiens, UniProt Q9Y2I7) | 100
Mast/stem cell growth factor receptor Kit (KIT, Homo sapiens, UniProt P10721, L576P) | 100
Serine/threonine-protein kinase BRSK1 (BRSK1, Homo sapiens, UniProt Q8TDC3) | 85
Serine/threonine-protein kinase NLK (NLK, Homo sapiens, UniProt Q9UBE8) | 100
Activated CDC42 kinase 1 (TNK2, Homo sapiens, UniProt Q07912) | 100
Serine/threonine-protein kinase Nek10 (NEK10, Homo sapiens, UniProt Q6ZWH5) | 100
Epidermal growth factor receptor (EGFR, Homo sapiens, UniProt P00533, G719S) | 100
Phosphatidylinositol 4,5-bisphosphate 3-kinase catalytic subunit delta isoform (PIK3CD, Homo sapiens, UniProt O00329) | 100
Fibroblast growth factor receptor 2 (FGFR2, Homo sapiens, UniProt P21802) | 100
Fibroblast growth factor receptor 4 (FGFR4, Homo sapiens, UniProt P22455) | 100
Receptor tyrosine-protein kinase erbB-3 (ERBB3, Homo sapiens, UniProt P21860) | 100
Mast/stem cell growth factor receptor Kit (KIT, Homo sapiens, UniProt P10721) | 100
Serine/threonine-protein kinase 4 (STK4, Homo sapiens, UniProt Q13043) | 100

Sample 3
Organism: Sarcocystis neurona
Observed: parasite growth
Concentration: concentration not given
Notes: first screen
Baseline: untreated
Structure (SMILES) | log2 fold change
COc1nc(C)nc(Cl)c1NC1=NCCN1.Cl | -0.1
O=C(N[C@H](CO)[C@H](O)c1ccc([N+](=O)[O-])cc1)C(Cl)Cl | -0.16
Cl.O=C(O)/C=C/c1ccc(Cn2ccnc2)cc1 | 0.1

Sample 4
SMILES: CC(C)n1cnc(-c2ccc(F)cc2)c1-c1ncc(C(=O)Nc2ccc(N3CCN(C)CC3)cc2)[nH]1
method | refers to | species | route | dose | notes | patients with TEAE [%]
– | liver function test abnormal | idiopathic pulmonary fibrosis patients | – | 30 mg once daily | – | 0
phase 2a trial | – | patients with idiopathic pulmonary fibrosis | – | 30 mg once daily | eye swelling, grade 4 | 0
phase 2a trial | – | idiopathic pulmonary fibrosis patients | oral | 30 mg once daily | CK-MB increased, grade 1 | 0
phase 2a trial | – | patients with idiopathic pulmonary fibrosis | – | 60 mg once daily | skin papilloma, maximum intensity grade 3 | 0

Sample 5
Cell line: mouse MPNST tumor cells
Method: high-content immunofluorescence imaging
Refers to: nuclear SOX9
Concentration: 10 µM
Time: 12 h
Notes: mean of 2 replicates
Baseline: DMSO control
Reading: higher = more nuclear SOX9
SMILES | nuclear SOX9 intensity
CCN(CC)CCOC(=O)C1(C2CCCCC2)CCCCC1 | 141 % of DMSO
O=C(NCCO)c1cccc(-c2cc(Nc3ccc(OC(F)(F)F)cc3)ncn2)c1 | 162 % of DMSO
N=C(N)NCCCC[C@@H]1NC(=O)CCSSC[C@@H](C(N)=O)NC(=O)[C@@H]2CCCN2C(=O)[C@H](Cc2c[nH]c3ccccc23)NC(=O)[C@H](CC(=O)O)NC(=O)CNC1=O | 101 % of DMSO
CNC(=O)c1ccccc1Sc1ccc2c(/C=C/c3ccccn3)n[nH]c2c1 | 154 % of DMSO

Other studies, line by line
SMILES | target or system | assay | test system | conditions | how to read | quantity | value
O=C1Cc2c([nH]c3ccc([N+](=O)[O-])cc23)-c2ccccc2N1 | Glycogen synthase kinase-3 beta (GSK3B, Homo sapiens, UniProt P49841) | cell-free assay | – | 0.5 µM | – | remaining signal | 2.68%
O=C1CCC(N2Cc3cc(C4CCN(Cc5ccccc5)CC4)ccc3C2=O)C(=O)N1 (stereo not shown) | human Treg:Teff co-culture | – | – | concentration not given, Treg suppression | – | proliferating CD8+ Teff cells | 66.2% and 87.5% and 54.1% and 86.8% and 39.5% and 47.2%
COc1ccc(-c2c(Nc3ccccn3)[nH]c3c(C4=CCCCC4)c(-c4ccccc4)nn3c2=O)cc1 | – | – | human, plasma | oral, 200 mg twice daily, 24 h | – | last measured concentration | 10500 ng/mL and 10200 ng/mL
O=C(COc1ccc(Cl)cc1)NC1CCC(NC(=O)COc2ccc(Cl)cc2)CC1 (stereo not shown) | HEK293T ATF4-firefly luciferase reporter | integrated stress response, refers to: ATF4 | – | concentration not given | baseline: DMSO | reporter signal | 73.4% and 71.2% and 88% and 84.3% and 69.6% and 69.8% and 61.8%

Repeated from above (sample 4):
method | refers to | species | route | dose | notes | patients with TEAE [%]
phase 2a trial | – | patients with idiopathic pulmonary fibrosis | – | 30 mg once daily | eye swelling, grade 4 | 0
phase 2a trial | – | idiopathic pulmonary fibrosis patients | oral | 30 mg once daily | CK-MB increased, grade 1 | 0
– | liver function test abnormal | idiopathic pulmonary fibrosis patients | – | 30 mg once daily | – | 0
phase 2a trial | – | patients with idiopathic pulmonary fibrosis | – | 60 mg once daily | skin papilloma, maximum intensity grade 3 | 0
